# Experimental data pooled from the literature.
# Every numbered part comes from another study and shows a few of its results, in no order. Several values in a cell are separate wells, animals, samples, runs or records.
# Chain of UniProt Q9UM73 (whole entry, unmodified, looked up): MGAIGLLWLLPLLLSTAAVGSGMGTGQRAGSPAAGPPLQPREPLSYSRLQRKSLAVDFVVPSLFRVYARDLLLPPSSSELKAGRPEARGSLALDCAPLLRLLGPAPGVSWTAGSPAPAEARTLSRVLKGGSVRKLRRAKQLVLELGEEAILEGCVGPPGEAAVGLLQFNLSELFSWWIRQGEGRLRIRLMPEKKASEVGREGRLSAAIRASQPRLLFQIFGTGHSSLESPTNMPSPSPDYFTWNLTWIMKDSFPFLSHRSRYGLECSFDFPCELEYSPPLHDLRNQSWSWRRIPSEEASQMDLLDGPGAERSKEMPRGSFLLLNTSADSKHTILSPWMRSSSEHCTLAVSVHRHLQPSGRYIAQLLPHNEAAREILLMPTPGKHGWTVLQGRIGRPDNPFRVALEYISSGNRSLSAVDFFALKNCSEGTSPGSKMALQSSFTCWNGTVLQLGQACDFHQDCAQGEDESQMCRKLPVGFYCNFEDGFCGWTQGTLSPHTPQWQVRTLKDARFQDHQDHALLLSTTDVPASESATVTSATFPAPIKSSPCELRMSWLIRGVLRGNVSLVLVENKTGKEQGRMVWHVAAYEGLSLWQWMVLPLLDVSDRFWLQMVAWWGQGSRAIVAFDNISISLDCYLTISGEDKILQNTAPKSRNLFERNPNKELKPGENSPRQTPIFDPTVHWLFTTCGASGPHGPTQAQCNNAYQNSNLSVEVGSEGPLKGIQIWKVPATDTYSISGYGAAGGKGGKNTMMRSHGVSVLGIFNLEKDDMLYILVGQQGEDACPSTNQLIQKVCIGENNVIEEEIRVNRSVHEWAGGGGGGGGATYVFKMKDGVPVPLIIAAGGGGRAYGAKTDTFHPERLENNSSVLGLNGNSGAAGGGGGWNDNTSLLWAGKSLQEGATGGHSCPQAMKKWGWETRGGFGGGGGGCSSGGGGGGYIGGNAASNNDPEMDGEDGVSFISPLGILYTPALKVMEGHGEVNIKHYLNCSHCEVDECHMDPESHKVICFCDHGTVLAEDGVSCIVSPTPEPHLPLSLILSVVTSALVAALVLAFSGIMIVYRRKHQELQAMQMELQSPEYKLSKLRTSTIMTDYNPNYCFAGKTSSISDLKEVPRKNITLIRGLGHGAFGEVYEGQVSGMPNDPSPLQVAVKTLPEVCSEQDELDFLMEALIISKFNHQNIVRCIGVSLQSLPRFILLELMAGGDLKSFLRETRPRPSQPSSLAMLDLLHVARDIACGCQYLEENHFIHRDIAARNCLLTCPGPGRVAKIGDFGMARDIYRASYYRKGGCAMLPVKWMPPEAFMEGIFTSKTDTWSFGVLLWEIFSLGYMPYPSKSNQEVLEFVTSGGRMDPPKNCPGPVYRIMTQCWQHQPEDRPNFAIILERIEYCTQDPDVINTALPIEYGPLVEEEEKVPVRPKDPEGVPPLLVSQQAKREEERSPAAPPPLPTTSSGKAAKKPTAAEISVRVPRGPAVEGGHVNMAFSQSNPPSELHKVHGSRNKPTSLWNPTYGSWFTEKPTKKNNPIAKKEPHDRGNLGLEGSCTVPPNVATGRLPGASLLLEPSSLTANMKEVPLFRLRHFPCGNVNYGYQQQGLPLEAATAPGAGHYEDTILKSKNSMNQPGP
# Chain of UniProt P16234 (whole entry, looked up): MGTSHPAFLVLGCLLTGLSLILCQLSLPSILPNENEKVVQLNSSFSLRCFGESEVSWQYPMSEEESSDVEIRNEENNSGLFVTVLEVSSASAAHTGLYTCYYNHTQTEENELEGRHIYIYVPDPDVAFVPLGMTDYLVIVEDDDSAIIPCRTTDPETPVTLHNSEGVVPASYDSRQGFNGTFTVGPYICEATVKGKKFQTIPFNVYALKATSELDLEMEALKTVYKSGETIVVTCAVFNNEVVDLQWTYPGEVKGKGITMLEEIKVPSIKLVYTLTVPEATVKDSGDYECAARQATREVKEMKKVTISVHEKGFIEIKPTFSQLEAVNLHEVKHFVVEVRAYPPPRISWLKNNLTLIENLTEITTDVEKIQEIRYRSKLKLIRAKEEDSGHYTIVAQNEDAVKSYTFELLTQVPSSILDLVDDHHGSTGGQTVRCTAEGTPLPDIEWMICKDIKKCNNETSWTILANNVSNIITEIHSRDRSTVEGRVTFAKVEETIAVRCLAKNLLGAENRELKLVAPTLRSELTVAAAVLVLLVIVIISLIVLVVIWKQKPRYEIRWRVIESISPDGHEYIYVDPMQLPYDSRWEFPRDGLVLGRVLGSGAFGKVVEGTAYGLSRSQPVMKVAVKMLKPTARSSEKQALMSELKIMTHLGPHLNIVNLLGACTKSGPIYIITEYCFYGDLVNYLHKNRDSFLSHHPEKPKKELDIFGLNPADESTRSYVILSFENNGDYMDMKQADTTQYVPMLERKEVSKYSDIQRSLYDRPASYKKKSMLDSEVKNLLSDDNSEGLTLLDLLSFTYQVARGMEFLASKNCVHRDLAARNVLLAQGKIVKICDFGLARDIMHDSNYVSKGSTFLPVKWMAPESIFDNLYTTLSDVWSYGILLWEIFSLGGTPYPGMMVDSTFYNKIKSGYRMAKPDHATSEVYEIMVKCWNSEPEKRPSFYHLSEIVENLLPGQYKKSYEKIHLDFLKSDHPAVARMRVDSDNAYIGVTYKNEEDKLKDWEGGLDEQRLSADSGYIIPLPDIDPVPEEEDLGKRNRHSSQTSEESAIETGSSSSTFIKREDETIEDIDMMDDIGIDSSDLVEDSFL
# Chain of UniProt P42336 (whole entry, unmodified, looked up): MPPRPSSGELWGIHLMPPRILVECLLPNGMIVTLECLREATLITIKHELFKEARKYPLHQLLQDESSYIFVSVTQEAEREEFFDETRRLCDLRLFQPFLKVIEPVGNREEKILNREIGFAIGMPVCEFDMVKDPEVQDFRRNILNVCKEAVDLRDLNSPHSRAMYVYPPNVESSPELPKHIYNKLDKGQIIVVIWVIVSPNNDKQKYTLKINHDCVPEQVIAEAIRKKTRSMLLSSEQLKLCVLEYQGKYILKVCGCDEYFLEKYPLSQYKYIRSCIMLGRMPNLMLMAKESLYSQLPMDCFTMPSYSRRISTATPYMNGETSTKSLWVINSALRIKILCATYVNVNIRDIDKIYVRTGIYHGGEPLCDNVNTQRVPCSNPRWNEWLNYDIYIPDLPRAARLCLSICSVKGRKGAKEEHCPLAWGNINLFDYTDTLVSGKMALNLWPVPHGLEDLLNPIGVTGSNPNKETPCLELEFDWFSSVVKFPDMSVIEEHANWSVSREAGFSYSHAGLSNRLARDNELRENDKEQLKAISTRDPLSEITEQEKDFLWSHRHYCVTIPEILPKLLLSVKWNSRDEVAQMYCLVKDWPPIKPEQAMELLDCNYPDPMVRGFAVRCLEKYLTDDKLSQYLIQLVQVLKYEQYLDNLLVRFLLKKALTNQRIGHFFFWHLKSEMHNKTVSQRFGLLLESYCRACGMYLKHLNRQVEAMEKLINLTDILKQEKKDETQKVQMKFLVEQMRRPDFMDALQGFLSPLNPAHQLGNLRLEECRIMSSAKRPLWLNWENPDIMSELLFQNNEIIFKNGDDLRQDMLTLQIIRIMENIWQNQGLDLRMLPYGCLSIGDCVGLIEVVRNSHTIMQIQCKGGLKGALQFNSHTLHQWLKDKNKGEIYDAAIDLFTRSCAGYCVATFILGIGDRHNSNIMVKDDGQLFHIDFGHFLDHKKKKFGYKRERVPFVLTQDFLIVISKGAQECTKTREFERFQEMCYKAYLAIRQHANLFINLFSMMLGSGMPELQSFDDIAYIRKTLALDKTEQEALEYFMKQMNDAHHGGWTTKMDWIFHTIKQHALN
# Chain of UniProt P04629 (whole entry, looked up): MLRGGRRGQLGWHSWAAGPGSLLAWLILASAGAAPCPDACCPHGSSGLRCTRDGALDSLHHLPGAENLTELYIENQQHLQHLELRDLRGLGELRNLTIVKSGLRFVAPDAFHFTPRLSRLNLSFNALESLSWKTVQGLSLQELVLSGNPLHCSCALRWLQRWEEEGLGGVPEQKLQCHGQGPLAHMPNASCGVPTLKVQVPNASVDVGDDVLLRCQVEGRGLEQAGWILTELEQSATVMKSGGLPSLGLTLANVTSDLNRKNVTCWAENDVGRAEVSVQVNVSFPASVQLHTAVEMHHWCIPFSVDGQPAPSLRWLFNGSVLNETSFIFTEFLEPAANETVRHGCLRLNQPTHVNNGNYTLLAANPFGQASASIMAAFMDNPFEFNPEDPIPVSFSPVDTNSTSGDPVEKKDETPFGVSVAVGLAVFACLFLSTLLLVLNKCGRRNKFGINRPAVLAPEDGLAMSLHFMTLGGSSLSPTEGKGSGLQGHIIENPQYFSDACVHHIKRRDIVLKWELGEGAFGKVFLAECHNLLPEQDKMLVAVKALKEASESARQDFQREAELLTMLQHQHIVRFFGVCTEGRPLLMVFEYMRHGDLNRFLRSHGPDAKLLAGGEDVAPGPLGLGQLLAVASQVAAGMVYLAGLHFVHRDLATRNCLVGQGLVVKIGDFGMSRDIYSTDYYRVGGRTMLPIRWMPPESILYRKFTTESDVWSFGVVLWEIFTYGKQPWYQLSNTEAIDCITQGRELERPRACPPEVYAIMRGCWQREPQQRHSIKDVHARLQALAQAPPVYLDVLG
# Chain of UniProt Q9UQM7 (whole entry, looked up): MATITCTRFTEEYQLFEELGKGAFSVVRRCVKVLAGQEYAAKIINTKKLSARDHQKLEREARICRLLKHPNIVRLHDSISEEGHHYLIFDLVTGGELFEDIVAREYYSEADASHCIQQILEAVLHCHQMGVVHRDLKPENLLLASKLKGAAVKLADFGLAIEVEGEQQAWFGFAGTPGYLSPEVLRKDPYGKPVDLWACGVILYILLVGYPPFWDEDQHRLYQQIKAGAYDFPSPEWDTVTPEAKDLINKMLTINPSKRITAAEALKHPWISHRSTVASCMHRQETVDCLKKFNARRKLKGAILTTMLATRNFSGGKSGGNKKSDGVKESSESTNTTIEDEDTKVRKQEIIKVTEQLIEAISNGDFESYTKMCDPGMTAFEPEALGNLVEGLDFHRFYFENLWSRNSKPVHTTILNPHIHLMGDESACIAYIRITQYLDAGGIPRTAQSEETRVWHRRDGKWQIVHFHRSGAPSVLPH

# Series 1
# SMILES: CNC(=O)c1ccc(-c2cnn3ccc(C(=O)N(C)c4ccc(Cl)c(C(=O)OC)c4)cc23)cc1
# Organism: Cryptosporidium parvum
# Method: time-kill
# Strain: nanoluciferase-expressing
# Baseline: DMSO
tested at,time,luminescence
27 nM,72 h,14.4% and 9.22%
81 nM,24 h,32.4% and 27.8%
27 nM,48 h,9.63% and 11.5%
3 nM,48 h,120% and 102%
3 nM,72 h,89.6% and 104%

# Series 2
# SMILES: Cn1cncc1[C@](O)(COc1ccc(C#N)cc1-c1ccc(OC(F)(F)F)cc1)c1ccc(C#N)cc1
# Observed: cell-free assay
# Method: competition with immobilised ligand
# Tested at: 1 µM
target,remaining binding
"PDGFRA (Homo sapiens, UniProt P16234)",100%
"DCLK1 (Homo sapiens, UniProt O15075)",94%
"PIK3CA (Homo sapiens, UniProt P42336, H1047L)",100%
"PIK3CA (Homo sapiens, UniProt P42336, H1047Y)",77%
"eIF-2-alpha kinase GCN2, C-terminal kinase domain (EIF2AK4, Homo sapiens, UniProt Q9P2K8, S808G)",99%
"FLT3 (Homo sapiens, UniProt P36888, F691L/ITD)",98%
"BUB1 (Homo sapiens, UniProt O43683)",85%
"PNCK (Homo sapiens, UniProt Q6P2M8)",60%
"RIPK1 (Homo sapiens, UniProt Q13546)",79%
"FGR (Homo sapiens, UniProt P09769)",100%
"EPHB6 (Homo sapiens, UniProt O15197)",95%
"FES (Homo sapiens, UniProt P07332)",100%
"MAK (Homo sapiens, UniProt P20794)",100%
"ALK (Homo sapiens, UniProt Q9UM73, L1196M)",100%
"ALK (Homo sapiens, UniProt Q9UM73)",100%

# Series 3
# Compound: CCn1cnc2c(Nc3cccc(Cl)c3)nc(N[C@H]3CCCC[C@H]3N)nc21
# Observed: enzyme activity
# Mode: inhibitor
# Tested at: 0.5 µM
# Baseline: control
target,remaining activity [%]
"HASPIN (Homo sapiens, UniProt Q8TF76)",90.4
"PIM3 (Homo sapiens, UniProt Q86V86)",34.7
"ZAP70 (Homo sapiens, UniProt P43403)",106
"NTRK1 (Homo sapiens, UniProt P04629)",92.9
"Cyclin-dependent kinase 6, with cyclin D1 (CDK6, Homo sapiens, UniProt Q00534)",60.9
"PDGFRA (Homo sapiens, UniProt P16234)",100
"SRPK2 (Homo sapiens, UniProt P78362)",80.7
"Aurora kinase B (AURKB, Homo sapiens, UniProt Q96GD4)",98.8
"CAMK2A (Homo sapiens, UniProt Q9UQM7)",96.5

# Series 4
# Cell line: mouse MPNST tumor cells
# Method: high-content immunofluorescence imaging
# Item: nuclear SOX9
# Tested at: 10 µM
# Time: 12 h
# Setting: mean of 2 replicates
# Baseline: DMSO control
# Reading: higher = more nuclear SOX9
Compound,nuclear SOX9 intensity
CC(=O)NC1CCSC1=O (racemic),74 % of DMSO
Cc1cccc(NC(=O)N[C@@H]2N=C(c3ccccc3)c3ccccc3N(CC(=O)c3ccccc3C)C2=O)c1,124 % of DMSO
NCC(CC(=O)O)c1ccc(Cl)cc1 (racemic),93.6 % of DMSO
Cc1sc2c(c1C)C(c1ccc(Cl)cc1)=N[C@@H](CC(=O)OC(C)(C)C)c1nnc(C)n1-2,127 % of DMSO

# A few entries again (series 2):
target,remaining binding
"FES (Homo sapiens, UniProt P07332)",100%
"RIPK1 (Homo sapiens, UniProt Q13546)",79%
"PIK3CA (Homo sapiens, UniProt P42336, H1047L)",100%
